Experimental data collected from several papers.
Lines come from different studies, so protocols differ. Numbers after ± are the reported error.
Method: steady-state kinetics
B1: protein (Cecembia lonarensis, UniProt K1KZY4); chain QVQYNPEKPARPEDHKPFFYKYNTRQLYEKFSDDLMQRAANDRKEIEKINQLGKYKPKKQSLDEHEVPEWFRDAKLGIFLDWGPWSVPGYAPPGSEGDTGGSYPDWYEFLMDFTYKAYHDSIWGEDFRRDDFLPLLHGNNFDSEEYAELAVQAGAKYMVPFARHHAGWTMWESKYTFRNAVEMGPKRDILKELVEASRKRDLKFGFYFSIAEWEYPVITKERVSQWDPYEDMAIFHDGMGLIPRPVPLASYFPARHDRMISGKIPVKDYFGDYMMPLFKEGVDLFDPDLVWYDGGWGTPANSSRVPELSAYFYNQAEGRKEVVINNRAGAYLDDSNLLKFNEVLKSGEHDKLLELYMKAEQIGDYLTPEYSIGNVDINEPWEVCRSISPAFGFNWTDNEENSLSSKELVKMFVGIVANNGNLLLVINPDGSGKLSNVQKDRLLDLGQWLKVNGEGIYSTRPWEIQESEGNFFTKSKNGEFIYIHILDKEKTTIEVPNLNPKNKGAISILGSKEKVLWENSGPITRITIPESFKDERNWPNKYGFTLKVAVK
B2: onr (Enterobacter cloacae, UniProt P71278); chain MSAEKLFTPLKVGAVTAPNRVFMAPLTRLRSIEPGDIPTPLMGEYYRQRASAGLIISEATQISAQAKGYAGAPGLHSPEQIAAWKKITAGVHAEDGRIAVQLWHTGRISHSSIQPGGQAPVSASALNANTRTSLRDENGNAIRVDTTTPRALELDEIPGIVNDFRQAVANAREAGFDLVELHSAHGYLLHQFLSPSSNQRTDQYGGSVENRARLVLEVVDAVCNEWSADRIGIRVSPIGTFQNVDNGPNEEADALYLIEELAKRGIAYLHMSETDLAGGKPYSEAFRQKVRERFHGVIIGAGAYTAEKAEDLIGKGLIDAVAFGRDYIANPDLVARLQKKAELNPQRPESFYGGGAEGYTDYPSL
B3: Tcur_2987 W263F (Thermomonospora curvata, UniProt D1A807); chain ACSEERAAGARPSATQTTGTATEPFHGPHQAGIATPPQAHAVFLGLDLRKGTGRKELGRLMRLLTDDARRLTQGRPALADPEPDLAPLPSRLTFTFGFGPGLFKAAGLEKQRPEGLRPLPPFKVDRLEDRWSGGDLLVQICCDDPITLAHALRMTVKDARAFTRVRWVQRGFRRSPGVQSSGATQRNLMGQLDGTVNPVPGTADFDQAVWVQDGPEWLRGGTTLVLRRIRMELEKFDEADPAGKEFAVGRRLTSGAPLTGRHEHDEPDFDAVDSAGFPVIAENAHIRLAHVDSPRLRMLRRPYNYDEGLTADGRSDAGLLFAAYQADIDRQFIPVQRRLDEGGDLLNLWTTPIGSAVFAIPPGCDENGWIGQGLLG
B4: TaNK (Thermoplasma acidophilum, UniProt Q9HJT3); chain MRFLAYFGHLNIDVLISVDSIPREGSVNVKDLRPRFGGTAGNFAIVAQKFRIPFDLYSAVGMKTHREYLAMIESMGINTGHVEKFEDESGPICYIATDGKKQVSFMHQGAMEKWKPQLADEYEYVHFSTGPNYLDMAKSIRSKIIFDPSQEIHKYSKDELKKFHEISYMSIFNDHEYRVFREMTGLSSPKVTTIVTNGERGSSLFMDGKKYDFPAIPSSGDTVGAGDSFRAGLYLALYNRRSIEKGMIYGTIIAHHVIDDGIENFSLNMEDLERETENYRRMFTKRS
B5: protein F222G (Planktothrix agardhii, UniProt F5B6Z0); chain MIVNVIQKDRLKEQKLQFIRNHQQAFDVEPIYPLPLFEDFVTSIEGDCSLEASCKIESDKLIASRFLLFFEDKTQEWQKYLHQSLTFFGLVENRVGVKINYSLLQQFLGSSFDFSKVTVLSAGIDLRNNLAESSLKMHIRIKDYPEKLDKAFALSDGAADGNYLKDFVNLIGFDFYFNGKSEIEIYAEVQEDDFFKPEINNLVWQHFPKTALQPLKASSLFGTGLSKANNNPVLYYHLKNRQDLTNYFKLNDTAQRVHSFYQHQDILPYMWVGTAQKELEKTRIENIRLYYYKSFKMESN
B6: Cop6 (Coprinopsis cinerea, UniProt A8NCK5); chain MPAALPYNVSRDNKWDIKKIIQDFFKRCDVPYQVIPYDTELWNACLKRAKEKGYPVEPDSPMSLYRSFKVGVVITRTSYGHIQDYEILIWVATFTAFVTYADDAFQEDIQHLHSFARTFLQNEKHEHPVLEAFAQFLRESSIRFSHFVANTVVSSALRFMMSIALEFEGQNVSVSTEAREYPGYIRILSGLSDIYALFAFPMDLPRSTYIQAFPEQIDYINGTNDLLSFYKEELDCETVNFISAAATSQQVSKLEVLRNAAEKAAYSYDVVVNVLKPYPEALAAWKSFARGFCYFHTSSPRYRLGEMFHDFEHDLVCKCASCTEI
B7: TylM1 (Streptomyces fradiae, UniProt P95748); chain MAHSSATAGPQADYSGEIAELYDLVHQGKGKDYHREAADLAALVRRHSPKAASLLDVACGTGMHLRHLADSFGTVEGLELSADMLAIARRRNPDAVLHHGDMRDFSLGRRFSAVTCMFSSIGHLAGQAELDAALERFAAHVLPDGVVVVEPWWFPENFTPGYVAAGTVEAGGTTVTRVSHSSREGEATRIEVHYLVAGPDRGITHHEESHRITLFTREQYERAFTAAGLSVEFMPGGPSGRGLFTGLPGAKGETR
B8: Paox H64N (Mus musculus, UniProt Q8C0L6); chain MAFPGPRVLVVGSGIAGLGAAQKLCSHRAAPHLRVLEATASAGGRIRSERCFGGVVELGAHWINGPSQDNPVFQLAAEFGLLGEKELSEENQLVDTGGHVALPSMIWSSSGTSVSLELMTEMARLFYGLIERTREFLNESETPMASVGEFLKKEISQQVASWTEDDEDTRKRKLAILNTFFNIECCVSGTHSMDLVALAPFGEYTVLPGLDCILAGGYQGLTDRILASLPKDTVAFDKPVKTIHWNGSFQEAAFPGETFPVLVECEDGARLPAHHVIVTVPLGFLKEHQDTFFEPPLPAKKAEAIKKLGFGTNNKIFLEFEEPFWEPDCQFIQVVWEDTSPLQDTALSLQDTWFKKLIGFLVQPSFESSHVLCGFIAGLESEFMETLSDEEVLLSLTQVLRRVTGNPQLPAAKSVRRSQWHSAPYTRGSYSYVAVGSTGDDLDLMAQPLPEDGTGTQLQVLFAGEATHRTFYSTTHGALLSGWREADRLVSLWDSQVEQSRPRL
B9: carbamoyl phosphate synthetase large subunit M911E (Escherichia coli, UniProt P00968); chain PKRTDIKSILILGAGPIVIGQACEFDYSGAQACKALREEGYRVILVNSNPATIMTDPEMADATYIEPIHWEVVRKIIEKERPDAVLPTMGGQTALNCALELERQGVLEEFGVTMIGATADAIDKAEDRRRFDVAMKKIGLETARSGIAHTMEEALAVAADVGFPCIIRPSFTMGGSGGGIAYNREEFEEICARGLDLSPTKELLIDESLIGWKEYEMEVVRDKNDNCIIVCSIENFDAMGIHTGDSITVAPAQTLTDKEYQIMRNASMAVLREIGVETGGSNVQFAVNPKNGRLIVIEMNPRVSRSSALASKATGFPIAKVAAKLAVGYTLDELMNDITGGRTPASFEPSIDYVVTKIPRFNFEKFAGANDRLTTQMKSVGEVMAIGRTQQESLQKALRGLEVGATGFDPKVSLDDPEALTKIRRELKDAGADRIWYIADAFRAGLSVDGVFNLTNIDRWFLVQIEELVRLEEKVAEVGITGLNADFLRQLKRKGFADARLAKLAGVREAEIRKLRDQYDLHPVYKRVDTCAAEFATDTAYMYSTYEEECEANPSTDREKIMVLGGGPNRIGQGIEFDYCCVHASLALREDGYETIMVNCNPETVSTDYDTSDRLYFEPVTLEDVLEIVRIEKPKGVIVQYGGQTPLKLARALEAAGVPVIGTSPDAIDRAEDRERFQHAVERLKLKQPANATVTAIEMAVEKAKEIGYPLVVRPSYVLGGRAMEIVYDEADLRRYFQTAVSVSNDAPVLLDHFLDDAVEVDVDAICDGEMVLIGGIMEHIEQAGVHSGDSACSLPAYTLSQEIQDVMRQQVQKLAFELQVRGLMNVQFAVKNNEVYLIEVNPRAARTVPFVSKATGVPLAKVAARVMAGKSLAEQGVTKEVIPPYYSVKEVVLPFNKFPGVDPLLGPEERSTGEVMGVGRTFAEAFAKAQLGSNSTMKKHGRALLSVREGDKERVVDLAAKLLKQGFELDATHGTAIVLGEAGINPRLVNKVHEGRPHIQDRIKNGEYTYIINTTSGRRAIEDSRVIRRSALQYKVHYDTTLNGGFATAMALNADATEKVISVQEMHAQIK
UniProt O60656, sequence (whole entry, looked up): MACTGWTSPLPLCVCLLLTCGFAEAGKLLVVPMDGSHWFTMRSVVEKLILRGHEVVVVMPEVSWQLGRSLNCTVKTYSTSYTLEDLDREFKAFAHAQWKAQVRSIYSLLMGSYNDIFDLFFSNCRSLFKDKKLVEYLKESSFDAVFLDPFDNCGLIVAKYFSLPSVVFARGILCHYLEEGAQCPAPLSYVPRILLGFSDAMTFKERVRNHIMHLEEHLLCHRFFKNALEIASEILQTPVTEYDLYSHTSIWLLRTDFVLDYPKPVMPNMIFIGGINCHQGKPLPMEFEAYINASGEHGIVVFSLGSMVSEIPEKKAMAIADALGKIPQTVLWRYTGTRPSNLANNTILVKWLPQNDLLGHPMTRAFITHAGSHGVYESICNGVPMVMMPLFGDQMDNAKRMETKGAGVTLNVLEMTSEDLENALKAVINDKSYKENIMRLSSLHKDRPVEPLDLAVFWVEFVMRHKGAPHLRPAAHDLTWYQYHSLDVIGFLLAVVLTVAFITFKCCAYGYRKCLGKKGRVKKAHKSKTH
UniProt Q92903, sequence (whole entry, looked up): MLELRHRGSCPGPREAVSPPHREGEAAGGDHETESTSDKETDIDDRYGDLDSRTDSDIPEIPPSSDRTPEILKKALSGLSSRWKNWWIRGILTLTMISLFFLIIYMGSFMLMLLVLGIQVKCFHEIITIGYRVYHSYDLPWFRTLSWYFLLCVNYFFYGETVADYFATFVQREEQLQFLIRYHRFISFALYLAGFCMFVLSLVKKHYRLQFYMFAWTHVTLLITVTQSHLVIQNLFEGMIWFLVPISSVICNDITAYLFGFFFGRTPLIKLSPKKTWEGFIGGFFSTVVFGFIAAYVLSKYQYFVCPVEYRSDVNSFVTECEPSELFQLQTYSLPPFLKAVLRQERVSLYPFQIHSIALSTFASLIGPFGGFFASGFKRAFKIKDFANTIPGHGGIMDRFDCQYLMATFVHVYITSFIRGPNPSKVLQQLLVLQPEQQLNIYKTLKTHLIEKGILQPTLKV
UniProt Q92UV7, sequence (whole entry, looked up): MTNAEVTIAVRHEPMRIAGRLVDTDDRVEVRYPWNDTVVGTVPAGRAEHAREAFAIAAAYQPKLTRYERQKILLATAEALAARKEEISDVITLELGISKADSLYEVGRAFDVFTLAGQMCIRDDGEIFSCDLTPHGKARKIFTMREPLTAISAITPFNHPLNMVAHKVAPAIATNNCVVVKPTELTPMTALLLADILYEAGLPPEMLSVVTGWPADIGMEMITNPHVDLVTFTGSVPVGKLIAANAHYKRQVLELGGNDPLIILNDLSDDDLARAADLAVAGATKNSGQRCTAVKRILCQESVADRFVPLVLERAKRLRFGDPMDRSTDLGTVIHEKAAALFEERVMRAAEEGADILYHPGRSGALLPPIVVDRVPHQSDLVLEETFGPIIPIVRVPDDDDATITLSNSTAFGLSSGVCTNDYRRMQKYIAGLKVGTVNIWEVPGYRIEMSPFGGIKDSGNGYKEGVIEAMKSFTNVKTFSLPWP

With `CDS1 (Homo sapiens, UniProt Q92903)` the kcat was 3.2 ± 0.2 s⁻¹ (CCCCC/C=C\C/C=C\CCCCCCCC(=O)O[C@H](COC(=O)CCCCCCCCCCCCCCCCC)COP(=O)(O)O; pH 8, not purified).
With `B1 (protein)` the kcat was 1.97 ± 0.09 s⁻¹ (C[C@@H]1O[C@@H](Oc2ccc([N+](=O)[O-])cc2)[C@@H](O)[C@H](O)[C@H]1O; pH 5.5, 35 °C).
`B2 (onr)` has a kcat of 7.65 ± 0.13 s⁻¹ (CC1=CC(=O)N(c2ccccc2)C1=O; pH 7, 25 °C, apparent, anaerobic, together with: NADPH 100 µM).
With `UGT1A9 (Homo sapiens, UniProt O60656)` the Km was 154 µM (COc1ccc(O)cc1; pH 7.4, 37 °C).
With `B3 (Tcur_2987 W263F)` the kcat was 49 ± 1 s⁻¹ (Nc1c(S(=O)(=O)O)cc(Nc2cccc(S(=O)(=O)CCOS(=O)(=O)O)c2)c2c1C(=O)c1ccccc1C2=O; pH 3, sigmoidal kinetics, together with: H2O2 1 mM).
The kcat of `B4 (TaNK)` is reported as 0.174 ± 0.003 s⁻¹ (Nc1ncnc2c1ncn2[C@@H]1O[C@H](COP(=O)(O)OP(=O)(O)OP(=O)(O)O)[C@@H](O)[C@H]1O; pH 8, 22 °C, apparent, together with: inosine, Mg2+).
`B5 (protein F222G)` gave a kcat of 0.458 ± 0.0183 s⁻¹ (CC(C)=CCC/C(C)=C/COP(=O)(O)OP(=O)(O)O; together with: tri-Tyr peptide acceptor).
For `B6 (Cop6)`, the kcat was 0.67 ± 0.007 s⁻¹ (CC(C)=CCC/C(C)=C/CC/C(C)=C/CO[P@@](=O)(O)OP(=O)(O)O; pH 8, 30 °C, together with: MgCl2 10 mM).
The kcat of `B7 (TylM1)` is reported as 0.172 ± 0.004 s⁻¹ (Cc1cn([C@H]2C[C@H](O)[C@@H](COP(=O)(O)OP(=O)(O)O[C@H]3O[C@H](C)[C@@H](O)[C@H](N)[C@H]3O)O2)c(=O)[nH]c1=O; 25 °C, together with: SAM).
For `enzyme (Sinorhizobium meliloti, UniProt Q92UV7)`, the kcat was 2.2 ± 0.1 s⁻¹ (O=CCP(=O)(O)O; pH 7.5, 30 °C).
For `B8 (Paox H64N)`, the kcat was 4.1 ± 0.1 s⁻¹ (CC(=O)NCCCNCCCCNCCCN; pH 10, 30 °C).
`B9` gave a kcat of 0.5 ± 0.05 s⁻¹ (Nc1ncnc2c1ncn2[C@@H]1O[C@H](COP(=O)(O)OP(=O)(O)OP(=O)(O)O)[C@@H](O)[C@H]1O; pH 7.6, KCl 100 mM, together with: glutamine 10 mM, ornithine 10 mM).

Excerpt of the above:
`B5 (protein F222G)` gave a kcat of 0.458 ± 0.0183 s⁻¹ (CC(C)=CCC/C(C)=C/COP(=O)(O)OP(=O)(O)O; together with: tri-Tyr peptide acceptor).
